Experimental data of several laboratories.
Each line is one published result; not all experiments were run side by side.
Medium: plasma

COc1cc2c(cc1O)CCN1C[C@@H](CC(C)C)[C@@H](O)C[C@H]21
AUC(0-t) (item: non-deuterated analyte; healthy human male; oral, 25 mg, geometric mean, [14C]-tetrabenazine dosed): 0.16 µg·h/mL

CN1CCC[C@]1(C)/C=C/S(=O)(=O)NC(=O)Nc1c2c(cc3c1CC(O)C3)CCC2 (stereo partly shown)
AUC(0-t) (human; oral, 50 mg twice daily of parent drug, day 14, metabolite of dosed drug): 147 µg·h/mL

COc1cc2c(cc1OC)[C@H]1C[C@@H](O)[C@H](CC(C)C)CN1CC2
AUC(0-t) (item: non-deuterated analyte; healthy human male; oral, 25 mg, geometric mean, [14C]-tetrabenazine dosed): 0.109 µg·h/mL

CN1CCC[C@]1(C)/C=C/S(=O)(=O)NC(=O)Nc1c2c(cc3c1CCC3O)CCC2 (stereo partly shown)
AUC(0-t) (human; oral, 100 mg twice daily of parent drug, day 14, metabolite of dosed drug): 1930 µg·h/mL

CN(C(=O)C(C)(C)c1cc(C(F)(F)F)cc(C(F)(F)F)c1)c1cnc(N2C[C@H]3COCCN3C[C@H]2CO)cc1-c1ccc(F)cc1CO
AUC(0-t) (human; oral, 120 mg, geometric mean): 1.25 µg·h/mL

O=C(CCc1ccc(CNC(C(=O)O)C2CCCCC2)cn1)NO (stereo not shown)
AUC(0-t) ratio (healthy male humans; oral, 40 mg, single dose; reference: fed over fasted): 0.93

CN1CCC[C@]1(C)/C=C/S(=O)(=O)NC(=O)Nc1c2c(cc3c1C(O)CC3)CCC2 (stereo partly shown)
AUC(0-t) (human; oral, 50 mg twice daily of parent drug, day 14, metabolite of dosed drug): 297 µg·h/mL

CC[C@H](C)[C@@H]1NC(=O)[C@H](Cc2ccc(O)cc2)NC(=O)CCCSC[C@@H](C(=O)N(CC(=O)N[C@@H](CC(C)C)C(=O)NCC(N)=O)Cc2ccc(F)cc2)NC(=O)[C@H](CC(N)=O)NC(=O)[C@H](CCC(N)=O)NC1=O
AUC(0-t) (healthy human; intranasal, 400 µg every 3 h, after second dose): 0.000132 µg·h/mL

O=C(CCc1ccc(CNC(C(=O)OC2CCCC2)C2CCCCC2)cn1)NO (stereo not shown)
AUC(0-t) ratio (healthy male humans; oral, 40 mg, single dose; reference: fed over fasted): 0.94

CC1(C)CC[C@]2(NC(=O)C(C)(F)F)CC[C@]3(C)[C@H](C(=O)C=C4[C@@]5(C)C=C(C#N)C(=O)C(C)(C)[C@@H]5CC[C@]43C)[C@@H]2C1
AUC(0-t) (human; oral, 150 mg, alone, geometric least-squares mean): 1.34 µg·h/mL

Repeated from above:
O=C(CCc1ccc(CNC(C(=O)OC2CCCC2)C2CCCCC2)cn1)NO (stereo not shown)
AUC(0-t) ratio (healthy male humans; oral, 40 mg, single dose; reference: fed over fasted): 0.94

CC1(C)CC[C@]2(NC(=O)C(C)(F)F)CC[C@]3(C)[C@H](C(=O)C=C4[C@@]5(C)C=C(C#N)C(=O)C(C)(C)[C@@H]5CC[C@]43C)[C@@H]2C1
AUC(0-t) (human; oral, 150 mg, alone, geometric least-squares mean): 1.34 µg·h/mL
